# Measured values of several laboratories.
# Each numbered part is a random draw from the data of one study; scales do not carry over between parts.

# Block 1
# Target: RING finger protein unkempt homolog, zinc fingers 1-6, GST-SBP tag (UNK, Homo sapiens, UniProt Q9C0B0, residues 30-357)
# Sequence of UniProt Q9C0B0 (30-357, looked up): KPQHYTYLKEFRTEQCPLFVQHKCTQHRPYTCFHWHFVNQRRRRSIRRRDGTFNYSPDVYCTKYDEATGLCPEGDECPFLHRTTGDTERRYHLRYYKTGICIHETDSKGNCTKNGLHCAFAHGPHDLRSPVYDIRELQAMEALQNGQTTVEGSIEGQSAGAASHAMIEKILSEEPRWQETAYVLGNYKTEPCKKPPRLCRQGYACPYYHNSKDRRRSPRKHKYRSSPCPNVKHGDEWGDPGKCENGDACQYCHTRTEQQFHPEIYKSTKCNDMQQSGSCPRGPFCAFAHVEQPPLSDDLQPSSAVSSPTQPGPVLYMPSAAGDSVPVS
# Technique: RNA Bind-n-Seq
# Molecule type: RNA
# Matrix: in vitro
# Tested at: not given
# Notes: RNA with constant flanks, human-mouse chimeric sites, ends assumed
# Baseline: input RNA pool
# Direction: higher = stronger binding
# Shared flanks, not repeated: GGGAGUUCUACAGUCCGACGAUC … CAACAGAGGAUUGAGCAUCA
Strand,bound/input enrichment
AGAAAGCAAAACUUGGAACGAUUUAAGAAAGGAGACGUAAGAUUCUUGAUUUGCACAGAUGUAGCUGCUAGAGGGAUUGAUAUCCAUGGCGUUCCUUAUGUUAUAAACGUCACCCUGCCU,0.228 ratio
AACGUGGAGUUGAGUUCCUUGGCCCGGCUUCCCAGCUUAAAUAAACUCCGGAAGUUGGAACUUAGUGAUAAUAUAAUUUCUGGAGGCUUGGAAGUCCUGGCAGAGAAAUGUCCAAAUCUU,2.93 ratio
GGGACUGAUUCAUCCCAAGGACAGGCCGCCCAGUCUGAUGCCUGGACUGAUGACAGUAUGGAAGGGCCUAGUCAAAAUGUUGAAGCUGAGUCAAUUCAAGAUAAUGCGAGUAUGGAAGAG,0.299 ratio
AAAGUGAUGACUAUGUUUGUACAGCGACAGGUAUUUUCUGAGAACAAAGAUGAGAUUGCGUUAGUCCUCUAUGGCACAGAUGGCACUGAUAAUGCCCUUGCUGGCAAGGACCAGUAUCAG,0.111 ratio
UUUGUAUUCAUGUUAAGCACACGUGCUGGUGGUCUGGGCAUCAAUCUUGCAACUGCUGAUGUAGUCAUUUUAUAUGAUUCUGAUUGGAAUCCGCAAGUUGAUCUUCAGGCUAUGGACCGU,0.259 ratio

# Block 2
# Target: Interferon regulatory factor 7, full length, phosphomimetic (IRF7, Homo sapiens, UniProt Q92985, residues 1-503, S471D/S472D/S475D/S476D/S477D/S483D/S484D/S487D)
# Technique: protein-binding microarray
# Molecule type: double-stranded DNA, one strand shown
# Matrix: in vitro
# Tested at: 2200 nM top
# Notes: 60-bp whole probe
# Added: salmon DNA 0.4 mg/ml
# Baseline: random background probes
# Direction: higher = stronger binding
# Shared flanks, not repeated: GCCTAGCAC … GTCTTGATTCGCTTGACGCTGCTG
# Construct (chain): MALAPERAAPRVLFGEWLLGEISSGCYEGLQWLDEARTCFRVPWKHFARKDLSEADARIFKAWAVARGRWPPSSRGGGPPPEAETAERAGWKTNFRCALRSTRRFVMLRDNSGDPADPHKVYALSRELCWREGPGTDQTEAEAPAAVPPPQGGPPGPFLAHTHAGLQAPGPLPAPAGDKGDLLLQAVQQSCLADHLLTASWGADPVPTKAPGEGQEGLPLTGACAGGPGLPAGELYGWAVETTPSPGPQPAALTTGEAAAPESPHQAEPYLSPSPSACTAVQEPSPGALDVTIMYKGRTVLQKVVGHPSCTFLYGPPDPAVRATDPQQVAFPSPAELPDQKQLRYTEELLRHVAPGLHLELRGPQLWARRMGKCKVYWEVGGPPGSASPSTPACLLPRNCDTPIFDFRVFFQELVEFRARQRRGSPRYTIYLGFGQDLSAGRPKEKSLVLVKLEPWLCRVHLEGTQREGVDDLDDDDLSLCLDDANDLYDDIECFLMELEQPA
Strand,fitted relative affinity
TTAGATTGCGGGTATCGATTAGTGCTA,0.473 z-score
TTAGAACTGCTTATCCTTTAGTGCTAG,0.4 z-score
CTAGGACTGCTTTTCCTTTAGTGCTAG,1.44 z-score
TTAGATATCATTTTCGATTAGTGCTAG,5.61 z-score
GTGGGGGGTGTGAGTGGGTGGTGCTAG,1.85 z-score

# Block 3
# Target: Histone acetyltransferase KAT6A, winged helix 1, GST fusion (KAT6A, Homo sapiens, UniProt Q92794, residues 1-85)
# Technique: protein binding microarray
# Molecule type: double-stranded DNA, one strand shown
# Matrix: in vitro
# Tested at: not given
# Notes: 8-mer, flanks averaged, mean of 2 arrays, mostly near background
# Baseline: not given
# Direction: higher = stronger binding
# Construct (chain): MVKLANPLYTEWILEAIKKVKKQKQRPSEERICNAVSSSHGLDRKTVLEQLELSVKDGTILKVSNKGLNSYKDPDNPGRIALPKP
Strand,E-score
GACTATCA,-0.183
GGCAAGTA,-0.0315
AACGCGTC,0.338
AAGTAGTG,-0.0786
GCTTGACC,0.0789

# Single results of other studies
Substance,target,test,system,conditions,scale,measurement,value
"PhoQ, residues 284 288 289 292 302 303 SIHMAM","PhoP, residues 12 14 15 18 19 NQFFI (Escherichia coli, UniProt P23836)","Sort-seq, measured: YFP reporter",E. coli,"PhoQ-PhoP variant library, added: 10 µM Mg2+","baseline: high Mg2+ state, higher = stronger signaling",fold induction,9.44

# Repeated from above (block 1):
Strand,bound/input enrichment
AACGUGGAGUUGAGUUCCUUGGCCCGGCUUCCCAGCUUAAAUAAACUCCGGAAGUUGGAACUUAGUGAUAAUAUAAUUUCUGGAGGCUUGGAAGUCCUGGCAGAGAAAUGUCCAAAUCUU,2.93 ratio
GGGACUGAUUCAUCCCAAGGACAGGCCGCCCAGUCUGAUGCCUGGACUGAUGACAGUAUGGAAGGGCCUAGUCAAAAUGUUGAAGCUGAGUCAAUUCAAGAUAAUGCGAGUAUGGAAGAG,0.299 ratio
